Measured values of several laboratories.
Numbered parts are unrelated; each lists some results of a single study.
Chain of UniProt P29317 (whole entry, looked up): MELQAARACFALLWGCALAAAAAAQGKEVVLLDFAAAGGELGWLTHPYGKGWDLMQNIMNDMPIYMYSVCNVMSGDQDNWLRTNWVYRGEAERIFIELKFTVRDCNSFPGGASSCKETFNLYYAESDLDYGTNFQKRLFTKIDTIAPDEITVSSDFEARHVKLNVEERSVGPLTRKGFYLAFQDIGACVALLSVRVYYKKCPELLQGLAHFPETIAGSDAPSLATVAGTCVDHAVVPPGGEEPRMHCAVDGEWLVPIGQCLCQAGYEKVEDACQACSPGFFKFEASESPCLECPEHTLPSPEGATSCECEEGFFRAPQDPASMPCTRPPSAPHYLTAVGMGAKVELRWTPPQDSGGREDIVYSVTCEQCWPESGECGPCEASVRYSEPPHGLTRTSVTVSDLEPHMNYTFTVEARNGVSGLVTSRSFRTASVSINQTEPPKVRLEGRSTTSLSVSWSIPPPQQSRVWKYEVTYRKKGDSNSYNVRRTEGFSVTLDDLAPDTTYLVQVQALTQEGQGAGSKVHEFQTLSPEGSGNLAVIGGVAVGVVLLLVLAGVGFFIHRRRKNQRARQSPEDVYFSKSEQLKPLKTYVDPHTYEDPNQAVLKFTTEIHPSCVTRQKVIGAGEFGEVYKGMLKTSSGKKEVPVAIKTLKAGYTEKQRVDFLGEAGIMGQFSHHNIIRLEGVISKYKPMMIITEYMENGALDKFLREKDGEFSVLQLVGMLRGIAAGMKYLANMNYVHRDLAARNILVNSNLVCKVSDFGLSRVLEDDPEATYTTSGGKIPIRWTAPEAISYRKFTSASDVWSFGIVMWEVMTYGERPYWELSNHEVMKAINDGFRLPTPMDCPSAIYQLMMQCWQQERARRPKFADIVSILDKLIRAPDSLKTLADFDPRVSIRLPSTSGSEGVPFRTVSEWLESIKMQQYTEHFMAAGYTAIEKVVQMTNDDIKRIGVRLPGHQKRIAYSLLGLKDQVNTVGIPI
Chain of UniProt Q9HCP0 (whole entry, looked up): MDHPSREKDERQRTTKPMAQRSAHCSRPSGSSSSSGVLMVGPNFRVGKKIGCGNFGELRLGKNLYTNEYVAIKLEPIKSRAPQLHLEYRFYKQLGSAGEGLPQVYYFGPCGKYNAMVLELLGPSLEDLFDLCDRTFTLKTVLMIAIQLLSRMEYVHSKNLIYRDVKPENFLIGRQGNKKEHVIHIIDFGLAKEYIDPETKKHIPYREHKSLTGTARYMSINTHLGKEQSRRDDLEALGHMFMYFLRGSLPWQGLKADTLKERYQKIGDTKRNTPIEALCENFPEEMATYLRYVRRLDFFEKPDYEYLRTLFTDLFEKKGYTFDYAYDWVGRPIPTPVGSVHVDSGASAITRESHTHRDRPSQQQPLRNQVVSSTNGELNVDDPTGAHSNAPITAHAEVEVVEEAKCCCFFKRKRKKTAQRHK
Chain of UniProt P00519 (whole entry, unmodified, looked up): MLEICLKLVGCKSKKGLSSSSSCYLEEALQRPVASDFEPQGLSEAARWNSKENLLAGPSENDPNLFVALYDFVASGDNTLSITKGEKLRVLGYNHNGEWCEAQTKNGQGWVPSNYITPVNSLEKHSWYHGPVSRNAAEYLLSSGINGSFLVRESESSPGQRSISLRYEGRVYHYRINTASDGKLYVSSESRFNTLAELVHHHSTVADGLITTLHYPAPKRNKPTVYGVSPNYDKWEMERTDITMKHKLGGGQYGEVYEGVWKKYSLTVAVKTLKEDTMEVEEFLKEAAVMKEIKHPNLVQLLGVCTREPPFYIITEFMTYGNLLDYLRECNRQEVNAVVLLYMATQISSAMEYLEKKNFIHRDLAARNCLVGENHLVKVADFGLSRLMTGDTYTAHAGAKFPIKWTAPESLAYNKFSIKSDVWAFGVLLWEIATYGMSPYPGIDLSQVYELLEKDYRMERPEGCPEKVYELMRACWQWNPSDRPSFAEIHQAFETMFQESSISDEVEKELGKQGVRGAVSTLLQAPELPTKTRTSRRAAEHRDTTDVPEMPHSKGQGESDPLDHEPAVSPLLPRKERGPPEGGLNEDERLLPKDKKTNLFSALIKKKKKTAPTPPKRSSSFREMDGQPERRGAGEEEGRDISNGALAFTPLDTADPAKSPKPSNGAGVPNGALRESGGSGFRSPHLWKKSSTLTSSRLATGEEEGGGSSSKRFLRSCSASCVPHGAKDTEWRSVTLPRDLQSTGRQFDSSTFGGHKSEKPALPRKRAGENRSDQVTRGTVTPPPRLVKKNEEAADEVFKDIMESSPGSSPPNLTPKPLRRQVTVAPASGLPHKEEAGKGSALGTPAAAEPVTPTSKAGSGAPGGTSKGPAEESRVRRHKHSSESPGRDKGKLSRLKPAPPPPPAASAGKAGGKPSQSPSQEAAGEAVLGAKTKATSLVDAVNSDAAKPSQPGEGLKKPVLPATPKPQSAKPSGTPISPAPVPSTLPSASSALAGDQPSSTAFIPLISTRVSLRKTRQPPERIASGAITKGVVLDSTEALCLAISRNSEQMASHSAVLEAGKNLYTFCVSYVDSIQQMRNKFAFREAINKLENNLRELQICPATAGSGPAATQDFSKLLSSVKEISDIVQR
Chain of UniProt Q14012 (whole entry, looked up): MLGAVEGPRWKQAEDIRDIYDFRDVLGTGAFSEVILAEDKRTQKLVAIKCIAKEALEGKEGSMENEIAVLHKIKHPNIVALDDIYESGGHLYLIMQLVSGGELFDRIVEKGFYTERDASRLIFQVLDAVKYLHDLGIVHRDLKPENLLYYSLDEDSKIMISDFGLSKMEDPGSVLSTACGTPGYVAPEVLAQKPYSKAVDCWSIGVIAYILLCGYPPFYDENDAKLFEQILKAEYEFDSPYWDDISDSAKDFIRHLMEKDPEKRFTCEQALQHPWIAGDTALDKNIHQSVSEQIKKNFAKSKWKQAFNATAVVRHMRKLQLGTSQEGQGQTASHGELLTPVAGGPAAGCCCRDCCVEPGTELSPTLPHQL
Chain of UniProt Q9NYL2 (whole entry, looked up): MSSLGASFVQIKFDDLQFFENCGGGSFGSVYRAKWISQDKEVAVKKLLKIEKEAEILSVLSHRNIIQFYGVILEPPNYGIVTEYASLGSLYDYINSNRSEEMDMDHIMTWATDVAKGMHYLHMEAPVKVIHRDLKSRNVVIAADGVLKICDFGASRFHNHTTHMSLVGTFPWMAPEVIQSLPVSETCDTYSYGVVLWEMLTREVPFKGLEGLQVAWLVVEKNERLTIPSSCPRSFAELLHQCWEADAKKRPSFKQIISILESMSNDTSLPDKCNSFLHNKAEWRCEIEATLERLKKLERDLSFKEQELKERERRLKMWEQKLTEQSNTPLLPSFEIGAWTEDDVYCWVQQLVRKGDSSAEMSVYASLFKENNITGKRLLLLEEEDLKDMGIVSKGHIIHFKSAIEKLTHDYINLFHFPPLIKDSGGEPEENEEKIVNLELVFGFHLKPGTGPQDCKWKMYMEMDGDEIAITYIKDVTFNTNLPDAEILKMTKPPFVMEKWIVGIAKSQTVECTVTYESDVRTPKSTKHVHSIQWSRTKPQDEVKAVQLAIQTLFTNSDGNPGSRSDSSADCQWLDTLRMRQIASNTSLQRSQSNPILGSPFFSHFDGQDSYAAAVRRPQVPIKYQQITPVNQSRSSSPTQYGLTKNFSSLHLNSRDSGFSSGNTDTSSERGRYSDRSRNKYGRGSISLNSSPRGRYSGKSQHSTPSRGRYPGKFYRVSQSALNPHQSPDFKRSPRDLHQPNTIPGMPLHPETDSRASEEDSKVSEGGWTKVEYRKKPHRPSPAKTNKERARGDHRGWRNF
Chain of UniProt P31751 (whole entry, looked up): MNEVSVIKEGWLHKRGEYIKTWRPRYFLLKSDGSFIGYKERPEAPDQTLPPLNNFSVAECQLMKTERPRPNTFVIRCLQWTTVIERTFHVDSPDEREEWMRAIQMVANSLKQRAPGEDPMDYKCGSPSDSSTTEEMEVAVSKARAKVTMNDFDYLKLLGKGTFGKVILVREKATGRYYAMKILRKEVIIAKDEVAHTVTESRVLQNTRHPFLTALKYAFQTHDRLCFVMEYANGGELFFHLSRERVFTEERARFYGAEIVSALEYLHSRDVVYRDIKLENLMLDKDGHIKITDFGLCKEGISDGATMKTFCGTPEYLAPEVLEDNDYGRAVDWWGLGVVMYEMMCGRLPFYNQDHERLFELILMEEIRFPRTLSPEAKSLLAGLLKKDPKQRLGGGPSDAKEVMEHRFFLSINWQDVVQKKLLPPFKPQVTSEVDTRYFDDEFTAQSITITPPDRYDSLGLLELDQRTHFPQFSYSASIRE
Chain of UniProt Q05513 (whole entry, looked up): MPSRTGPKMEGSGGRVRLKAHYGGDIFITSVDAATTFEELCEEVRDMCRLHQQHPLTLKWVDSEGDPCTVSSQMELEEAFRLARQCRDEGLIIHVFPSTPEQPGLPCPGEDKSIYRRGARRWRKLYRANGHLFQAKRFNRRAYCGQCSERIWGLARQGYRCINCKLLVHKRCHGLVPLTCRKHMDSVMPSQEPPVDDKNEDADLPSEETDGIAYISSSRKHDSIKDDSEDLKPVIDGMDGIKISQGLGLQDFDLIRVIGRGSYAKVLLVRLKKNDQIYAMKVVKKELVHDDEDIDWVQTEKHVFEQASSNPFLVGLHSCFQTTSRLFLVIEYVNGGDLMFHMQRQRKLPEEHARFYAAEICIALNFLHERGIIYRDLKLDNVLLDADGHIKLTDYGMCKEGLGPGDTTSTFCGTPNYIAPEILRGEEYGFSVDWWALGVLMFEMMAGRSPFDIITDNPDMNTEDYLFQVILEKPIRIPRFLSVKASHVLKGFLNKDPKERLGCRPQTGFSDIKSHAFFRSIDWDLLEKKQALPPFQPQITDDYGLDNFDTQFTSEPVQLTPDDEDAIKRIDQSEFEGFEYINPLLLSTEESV

Series 1
SMILES: Cn1cc(Cl)c2c(Oc3c(F)cc(Nc4cc(Cl)nc(N)n4)cc3F)ccnc21
Concentration: 0.1 µM
It gave 100% for remaining binding (RAC-beta serine/threonine-protein kinase (AKT2, Homo sapiens, UniProt P31751); cell-free assay, competition with immobilised ligand).
For Proto-oncogene tyrosine-protein kinase receptor Ret (RET, Homo sapiens, UniProt P07949); cell-free assay, competition with immobilised ligand: remaining binding read 99%.
Casein kinase I isoform gamma-1 (CSNK1G1, Homo sapiens, UniProt Q9HCP0); cell-free assay, competition with immobilised ligand — remaining binding: 100%.
For Epidermal growth factor receptor (EGFR, Homo sapiens, UniProt P00533, del752-759); cell-free assay, competition with immobilised ligand: remaining binding read 52%.
The remaining binding was 86% (SNF-related serine/threonine-protein kinase (SNRK, Homo sapiens, UniProt Q9NRH2); cell-free assay, competition with immobilised ligand).
Serine/threonine-protein kinase DCLK1 (DCLK1, Homo sapiens, UniProt O15075); cell-free assay, competition with immobilised ligand — remaining binding: 85%.
The remaining binding was 88% (Cyclin-dependent kinase 19 (CDK19, Homo sapiens, UniProt Q9BWU1); competition binding).
It gave 74% for remaining binding (Tyrosine-protein kinase ABL1, phosphorylated (ABL1, Homo sapiens, UniProt P00519, F317L); cell-free assay, competition with immobilised ligand).
Dual serine/threonine and tyrosine protein kinase (DSTYK, Homo sapiens, UniProt Q6XUX3); cell-free assay, competition with immobilised ligand — remaining binding: 98%.

Series 2
Cell line: HaCaT
Concentration: 100 µM
Time: 18 h
`O=c1ccc2ccc(O)c(O)c2o1` has a viability of 75.8%.
With `CCN(CC)Cc1cc(Nc2ccnc3cc(Cl)ccc23)ccc1O` the viability was 82.7%.
For `COC(=O)C1=CO[C@@H](O[C@@H]2O[C@H](CO)[C@@H](O)[C@H](O)[C@H]2O)[C@@H]2C(CO)=CC[C@H]12`, the viability was 111%.
For `CCCCCCNC(=O)n1cc(F)c(=O)[nH]c1=O`, the viability was 83.4%.
For `CC1(C)O[C@@H]2C[C@H]3[C@@H]4CCC5=CC(=O)CC[C@]5(C)[C@@]4(F)[C@@H](O)C[C@]3(C)[C@]2(C(=O)CCl)O1`, the viability was 91.1%.
`Cc1oncc1C(=O)Nc1ccc(C(F)(F)F)cc1` gave a viability of 68.9%.
For `O=C(CCCN1CC=C(n2c(=O)[nH]c3ccccc32)CC1)c1ccc(F)cc1`, the viability was 54.1%.
For `CCC(=O)OCC(=O)[C@@]1(OC(=O)CC)[C@@H](C)C[C@H]2[C@@H]3CCC4=CC(=O)C=C[C@]4(C)[C@@]3(Cl)[C@@H](O)C[C@@]21C`, the viability was 70.6%.
For `COC(=O)C1=C(C)NC(C)=C(C(=O)OC(C)(C)CN(C)CCC(c2ccccc2)c2ccccc2)C1c1cccc([N+](=O)[O-])c1` (stereo not drawn), the viability was 92.3%.
The viability of `CC(=O)O[C@H]1C(=O)[C@@]2(C)[C@H]([C@H](OC(=O)c3ccccc3)[C@]3(O)C[C@H](OC(=O)[C@H](O)[C@@H](NC(=O)c4ccccc4)c4ccccc4)C(C)=C1C3(C)C)[C@]1(OC(C)=O)CO[C@@H]1C[C@@H]2O` is reported as 72.4%.

Series 3
SMILES: CCc1[nH]c(-c2ccc(OC)cc2)nc1-c1ccncc1
Observed: enzyme activity
Mode: inhibitor
Concentration: 0.5 µM
Reference: control
It gave 109% for remaining activity (Tyrosine-protein kinase Tec (TEC, Homo sapiens, UniProt P42680)).
It gave 104% for remaining activity (Ephrin type-A receptor 6 (EPHA6, Homo sapiens, UniProt Q9UF33)).
It gave 105% for remaining activity (Dual specificity protein kinase CLK1 (CLK1, Homo sapiens, UniProt P49759)).
Calcium/calmodulin-dependent protein kinase type 1 (CAMK1, Homo sapiens, UniProt Q14012) — remaining activity: 108%.
For Protein kinase C zeta type (PRKCZ, Homo sapiens, UniProt Q05513): remaining activity read 107%.
For SRSF protein kinase 1 (SRPK1, Homo sapiens, UniProt Q96SB4): remaining activity read 106%.
Tyrosine-protein kinase JAK1 (JAK1, Homo sapiens, UniProt P23458) — remaining activity: 110%.
It gave 88.3% for remaining activity (Serine/threonine-protein kinase SIK2 (SIK2, Homo sapiens, UniProt Q9H0K1)).
The remaining activity was 93.7% (Cyclin-dependent kinase 2, with cyclin E (CDK2, Homo sapiens, UniProt P24941)).
The remaining activity was 90.2% (Vascular endothelial growth factor receptor 1 (FLT1, Homo sapiens, UniProt P17948)).
The remaining activity was 99.3% (Serine/threonine-protein kinase PAK 1 (PAK1, Homo sapiens, UniProt Q13153)).
It gave 106% for remaining activity (Mitogen-activated protein kinase kinase kinase 20 (MAP3K20, Homo sapiens, UniProt Q9NYL2)).
For Dual specificity protein kinase CLK2 (CLK2, Homo sapiens, UniProt P49760): remaining activity read 106%.
It gave 95% for remaining activity (Casein kinase I isoform epsilon (CSNK1E, Homo sapiens, UniProt P49674)).
For Serine/threonine-protein kinase PAK 6 (PAK6, Homo sapiens, UniProt Q9NQU5): remaining activity read 102%.
Insulin-like growth factor 1 receptor (IGF1R, Homo sapiens, UniProt P08069) — remaining activity: 99.5%.
For Ribosomal protein S6 kinase alpha-3 (RPS6KA3, Homo sapiens, UniProt P51812): remaining activity read 98.7%.
For Ephrin type-A receptor 2 (EPHA2, Homo sapiens, UniProt P29317): remaining activity read 102%.
Casein kinase I isoform delta (CSNK1D, Homo sapiens, UniProt P48730) — remaining activity: 95.1%.
The remaining activity was 97.9% (Tyrosine-protein kinase receptor TYRO3 (TYRO3, Homo sapiens, UniProt Q06418)).
Serine/threonine-protein kinase Sgk2 (SGK2, Homo sapiens, UniProt Q9HBY8) — remaining activity: 103%.
Calcium/calmodulin-dependent protein kinase kinase 1 (CAMKK1, Homo sapiens, UniProt Q8N5S9) — remaining activity: 122%.
For Protein kinase C theta type (PRKCQ, Homo sapiens, UniProt Q04759): remaining activity read 121%.

Series 4
Host: human
Medium: microsomes or S9
Concentration: 2 µM
Time: 0.5 h
The remaining compound of `O=C(Cn1ncc2ccccc2c1=O)NCCn1nc2c(cc1=O)CCCCC2` is reported as 41%.
With `Cn1cnc2c(sc3nc4c(cc32)COC(C)(C)C4)c1=O` the remaining compound was 75.9%.
`CCc1cnc(N2CCC(Oc3cc(=O)n(-c4ccc(OC)nc4)c(=O)n3C)CC2)nc1` has a remaining compound of > 100%.
For `O=c1[nH]ncn2nc(-c3ccc(Cl)c(Cl)c3)cc12`, the remaining compound was > 99.9%.
With `CCc1cc(=O)[nH]c(-n2nc(C)cc2NC(=O)c2c(-c3ccccc3Cl)noc2C)n1` the remaining compound was 75.3%.
The remaining compound of `COc1ccccc1Nc1cnnc2c(Cl)cccc12` is reported as 9.01%.
`Oc1ccc([C@H]2c3c(O)cc(O)cc3[C@@H]3c4c(cc(O)c5c4[C@@H]2[C@@H](c2ccc(O)cc2)[C@@H]5c2cc(O)cc(O)c2)O[C@@H]3c2ccc(O)cc2)cc1` gave a remaining compound of 77.5%.
`Cc1csc(-c2cc(NC(=O)c3ccc(F)cc3F)c(C)s2)n1` gave a remaining compound of 16.2%.
The remaining compound of `Cc1cc([S+]([O-])c2ccccc2)c(C)n1S(=O)(=O)c1ccccc1` (stereo not drawn) is reported as 1.62%.

A few entries again (series 3):
For Serine/threonine-protein kinase PAK 6 (PAK6, Homo sapiens, UniProt Q9NQU5): remaining activity read 102%.
For SRSF protein kinase 1 (SRPK1, Homo sapiens, UniProt Q96SB4): remaining activity read 106%.
It gave 95% for remaining activity (Casein kinase I isoform epsilon (CSNK1E, Homo sapiens, UniProt P49674)).
The remaining activity was 99.3% (Serine/threonine-protein kinase PAK 1 (PAK1, Homo sapiens, UniProt Q13153)).
It gave 104% for remaining activity (Ephrin type-A receptor 6 (EPHA6, Homo sapiens, UniProt Q9UF33)).
For Ribosomal protein S6 kinase alpha-3 (RPS6KA3, Homo sapiens, UniProt P51812): remaining activity read 98.7%.
